Assay results from different studies.
Lines come from different studies, so protocols differ.
Target: Homeodomain-interacting protein kinase 2 (HIPK2, Homo sapiens, UniProt Q9H2X6)

Cc1cnc2nc1Nc1cccc(c1)COC/C=C/COCc1cc(ccc1OCCN1CCOCC1)N2  remaining binding (binding; 0.1 µM): 82%
Cc1cccc(O[C@H]2CCC[C@@H](C(C)CNCc3ccncc3)C2)c1 (relative stereo)  inhibition (enzyme activity, inhibitor; 1 µM): 1%
O=C=[N][Ru-4]123([n]4c5ccc(O)cc5c5c6c(c7cc(F)c[n+]1c7c54)C(=O)NC6=O)[S+]1CC[S+]2CC[S+]3CC1 (stereo not shown)  remaining activity (enzyme activity; 100 nM, human enzyme, added: 10 µM ATP; relative to: untreated): 70%
CCN1CCN(Cc2ccc(C(=O)Nc3ccc(C)c(NCc4cnc5[nH]ccc5c4OC)c3)cc2C(F)(F)F)CC1  remaining binding (binding, competition with immobilised ligand; 1 µM): 56%
O=C(Cc1ccc(OCc2ccccc2)cc1)NC1(C(=O)O)CCN(C(=O)c2ccc(-c3cccc(Cl)c3)cc2)CC1  activity vs control (enzyme activity, inhibitor; 10 µM): 109%
Nc1ncc2c(n1)-c1c([nH]c3ccc(C4=CCOCC4)cc13)CCC2  remaining binding (binding, competition with immobilised ligand; 1 µM): 54%
COc1c(OCCCN2CCOCC2)ccc2c1N=C(NC(=O)c1cnc(N)nc1)N1CCN=C21  remaining activity (kinase activity, inhibitor; 1 µM; relative to: untreated control): 111%
C=CC(=O)N1CCc2ccc(-n3c(=O)ccc4cnc5ccc(-c6cnn(C)c6)cc5c43)cc21  remaining binding (KINOMEscan; 1 µM; relative to: DMSO control): 66%
COc1c(Cl)cccc1Nc1c(-c2ccncc2C#C[C@@]2(C)CCCN2C(=O)/C=C/CN(C)C)[nH]c2c1C(=O)NCC2  remaining binding (binding, competition with immobilised ligand; 3 µM): 69%
NC(=O)[C@@H](O)C[C@H]1CCc2sc3ncnc(O[C@H]4CC[C@H](N5CCOCC5)CC4)c3c21  inhibition (enzyme activity, inhibitor; 10 µM): -13%
COc1ccc(NC(=O)Nc2ccc3c(c2)C(=O)N(C(C)CO)CC(C)C(CN(C)Cc2ccc4c(c2)OCO4)O3)cc1 (stereo not shown)  remaining activity (kinase activity, KinaseProfiler; 0.03 µM, species human; relative to: control): 106%
C=CC(=O)N1CCCC(n2c(=O)c3ncccc3n(Cc3ccc(Oc4ccccc4)cc3)c2=O)C1 (stereo not shown)  remaining binding (cell-free assay, competition with immobilised ligand; 1 µM): 76%
Cc1cccc(-c2ccc3nc(NC(=O)C4CCOCC4)nn3c2)c1  remaining activity (enzyme activity, Dundee kinase panel; 10 µM): 102%
C=CC(=O)Nc1cccc(-c2cnc3[nH]cc(C(=O)NC(C)(C)C)c3n2)c1  inhibition (enzyme activity, inhibitor; 0.1 µM): 65%
Cc1ccc(-c2c(/C=C(\C#N)C(=O)NC(C)C)n(CCCO)c3ncnc(N)c23)cc1  remaining binding (cell-free assay, competition with immobilised ligand; 1 µM): 75%
Cc1cccc(-c2ccc3nc(NC(=O)C4CCCO4)nn3c2)c1 (stereo not shown)  remaining activity (enzyme activity, Dundee kinase panel; 10 µM): 114%

A few entries again:
NC(=O)[C@@H](O)C[C@H]1CCc2sc3ncnc(O[C@H]4CC[C@H](N5CCOCC5)CC4)c3c21  inhibition (enzyme activity, inhibitor; 10 µM): -13%
